Published values from different studies.
Each numbered part is a random draw from the data of one study; scales do not carry over between parts. Substitutions count along the parent as printed.

Block 1
Target: Sal-like protein 4, full length isoform B (SALL4, Homo sapiens, UniProt Q9UJQ4-2, residues 1-616)
Technique: universal PBM
Form: double-stranded DNA, one strand shown
Sample: in vitro
Concentration: not given
Notes: 8-mer, flanks averaged, mean of replicates
Direction: higher = stronger binding
Construct (chain): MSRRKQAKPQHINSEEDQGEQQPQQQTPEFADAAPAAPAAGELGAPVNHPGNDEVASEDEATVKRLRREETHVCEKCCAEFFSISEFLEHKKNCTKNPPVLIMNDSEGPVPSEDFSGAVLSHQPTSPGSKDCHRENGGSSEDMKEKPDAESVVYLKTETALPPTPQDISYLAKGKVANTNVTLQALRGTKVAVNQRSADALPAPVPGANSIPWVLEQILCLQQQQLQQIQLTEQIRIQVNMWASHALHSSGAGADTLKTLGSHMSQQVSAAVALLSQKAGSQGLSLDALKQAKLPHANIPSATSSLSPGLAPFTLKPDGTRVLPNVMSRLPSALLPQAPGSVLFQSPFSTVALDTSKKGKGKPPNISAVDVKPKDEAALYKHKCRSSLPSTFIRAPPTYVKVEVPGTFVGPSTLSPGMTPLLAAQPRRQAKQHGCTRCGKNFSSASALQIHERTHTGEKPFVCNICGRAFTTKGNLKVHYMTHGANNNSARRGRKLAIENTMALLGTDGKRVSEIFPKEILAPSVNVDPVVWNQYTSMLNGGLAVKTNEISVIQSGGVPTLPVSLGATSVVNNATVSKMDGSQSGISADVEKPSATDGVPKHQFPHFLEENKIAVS
The E-score of `CTTGGACC` is reported as -0.297.
For `ACTCGTCA`, the E-score was -0.0366.
The E-score of `ATCTTCCA` is reported as 0.0457.
`GATAGAGC` gave an E-score of -0.0353.
`CCTAGTGC` gave an E-score of -0.119.
For `ACCTAAAT`, the E-score was 0.182.
The E-score of `ATCGTCCA` is reported as -0.0469.
`CTTGATCC` gave an E-score of -0.0876.
`CAGAGACA` has an E-score of -0.151.
With `AATCAAAA` the E-score was 0.296.
For `ATACCTGC`, the E-score was -0.0461.
`AAAGCGTA` has an E-score of 0.054.
With `AATCGGAC` the E-score was -0.13.
For `GACTATGC`, the E-score was -0.0289.
For `CACAGTCG`, the E-score was -0.0914.
With `ATTCAAAA` the E-score was 0.261.
`AGACTGGA` gave an E-score of -0.0823.
`ACATAAGA` has an E-score of 0.29.
`TAGCGAGA` has an E-score of -0.0408.
For `ACAGAACT`, the E-score was 0.198.
`ACTTGCCT` gave an E-score of -0.0656.
For `AAGGAACG`, the E-score was -0.0275.
`CCGGACGG` gave an E-score of -0.291.

Block 2
Target: Interferon regulatory factor 3, full length, phosphomimetic (IRF3, Homo sapiens, UniProt Q14653, residues 1-427, S386D/S396D/S398D/S402D/T404D/S405D)
Sequence of UniProt Q14653 (whole entry, unmodified, looked up): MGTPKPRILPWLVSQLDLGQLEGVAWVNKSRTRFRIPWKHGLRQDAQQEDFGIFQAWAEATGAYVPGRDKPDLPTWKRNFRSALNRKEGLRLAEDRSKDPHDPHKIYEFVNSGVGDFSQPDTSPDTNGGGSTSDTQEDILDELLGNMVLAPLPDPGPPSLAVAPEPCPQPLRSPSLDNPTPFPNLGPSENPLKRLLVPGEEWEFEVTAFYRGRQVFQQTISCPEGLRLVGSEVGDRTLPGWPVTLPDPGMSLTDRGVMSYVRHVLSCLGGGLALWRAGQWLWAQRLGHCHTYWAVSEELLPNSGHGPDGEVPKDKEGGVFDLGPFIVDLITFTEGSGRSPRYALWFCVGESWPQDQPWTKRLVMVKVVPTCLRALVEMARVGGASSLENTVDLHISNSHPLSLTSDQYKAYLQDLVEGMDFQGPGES
Technique: protein-binding microarray
Form: double-stranded DNA, one strand shown
Sample: in vitro
Concentration: 2540 nM top
Notes: 60-bp whole probe
Together with: salmon DNA 0.4 mg/ml
Reference: random background probes
Direction: higher = stronger binding
All sequences stand within: GCCTAGCAC … GTCTTGATTCGCTTGACGCTGCTG
`TTAGATATCGGGTACCGATTAGTGCTA` — result for “fitted relative affinity”: 1.03 z-score.
`TCCAGCCTGTTTCCAGCAGGGTGCTAG` — result for “fitted relative affinity”: 0.967 z-score.
`GCCGGTCTCCTACTGCTGACGTGCTAG`: “fitted relative affinity” 2.14 z-score.
Under “fitted relative affinity”, `TTCTACTTCTCTTTTGGCTTGTGCTAG` is recorded as 2.56 z-score.
`TCACTATTATATATATCACTGTGCTAG`: “fitted relative affinity” 0.821 z-score.
Under “fitted relative affinity”, `TTAGGTTCCGGTTTCGGGTAGTGCTAG` is recorded as 6.37 z-score.
Under “fitted relative affinity”, `TCACTTCTAGACTTCTCACTGTGCTAG` is recorded as 1.03 z-score.
`TTATTTTTTTTATTTATAAAGTGCTAG`: “fitted relative affinity” 1.48 z-score.
Under “fitted relative affinity”, `TCATTTATGCACTCTCTAACTGTGCTA` is recorded as 1.38 z-score.
`TCATCTTTTTTTCTTTTACTGTGCTAG` — result for “fitted relative affinity”: 1.89 z-score.
Under “fitted relative affinity”, `TTAGGGATCGACACTGGGTTAGTGCTA` is recorded as -0.535 z-score.
`TCAGGTTTCTATATTTGACTGTGCTAG`: “fitted relative affinity” 2.49 z-score.
Under “fitted relative affinity”, `TCAGGACTGGACACTGGGTTAGTGCTA` is recorded as -0.703 z-score.
`GACGGTTTCGGGACTAGGGACGTGCTA`: “fitted relative affinity” 4.77 z-score.
For `TCACCTTGGAAGTATGACACTGTGCTA`, “fitted relative affinity” read -0.0939 z-score.
`TTAGGACTTGACTTTCGGTTAGTGCTA` — result for “fitted relative affinity”: 1.16 z-score.
Under “fitted relative affinity”, `TCAGGACTGCTTTTCCTTTAGTGCTAG` is recorded as 0.95 z-score.
Under “fitted relative affinity”, `AACGGTCTCGGTCTCGGGACGTGCTAG` is recorded as 1.21 z-score.
`TACTGGACTGGGGTTTCCCGGTGCTAG` — result for “fitted relative affinity”: -0.453 z-score.

Block 3
Target: Centromere-binding protein 1, full length, N-terminal tag (CBF1, Saccharomyces cerevisiae, UniProt P17106, residues 1-351)
Sequence of UniProt P17106 (whole entry, looked up): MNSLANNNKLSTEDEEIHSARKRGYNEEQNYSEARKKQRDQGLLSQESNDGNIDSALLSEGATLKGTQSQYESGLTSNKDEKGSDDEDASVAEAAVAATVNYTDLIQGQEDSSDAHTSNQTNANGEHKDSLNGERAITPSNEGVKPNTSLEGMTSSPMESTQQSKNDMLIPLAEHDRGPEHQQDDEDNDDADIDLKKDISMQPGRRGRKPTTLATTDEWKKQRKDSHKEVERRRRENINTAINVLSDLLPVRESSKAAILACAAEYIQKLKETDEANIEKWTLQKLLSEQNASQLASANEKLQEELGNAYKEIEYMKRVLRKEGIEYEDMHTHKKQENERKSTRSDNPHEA
Technique: protein-binding microarray
Form: double-stranded DNA, one strand shown
Sample: in vitro
Concentration: 0.8 µM
Notes: whole 60-bp probe, no competitor
Direction: higher = stronger binding
With `CTAACAAGGAAGCATCATCACTTATTACAACCATTCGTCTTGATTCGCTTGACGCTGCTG` the fluorescence intensity was 509 a.u.
The fluorescence intensity of `GAACGTATAAAAGCACACATGACATAACCGAACTAGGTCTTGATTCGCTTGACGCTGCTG` is reported as 1180 a.u.
The fluorescence intensity of `CTAAGAAGTAGATAAATCACCACGAATCATTTGTTCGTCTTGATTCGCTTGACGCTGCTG` is reported as 543 a.u.
For `CTAAACATTCAATTCCTCACCTGGTGCGCACTTTTCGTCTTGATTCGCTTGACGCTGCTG`, the fluorescence intensity was 543 a.u.
The fluorescence intensity of `GAATTCCCATTTGGTCAGGAGGTATAAATCATATAGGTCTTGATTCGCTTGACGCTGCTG` is reported as 815 a.u.
For `TGTACGAAGCTATTGCGTGCTGATATAGTAGTTAGGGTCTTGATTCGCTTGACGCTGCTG`, the fluorescence intensity was 544 a.u.
With `GAAATTAAATAAAAAAACGTGATAAGCACGTGGTAGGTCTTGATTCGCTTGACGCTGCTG` the fluorescence intensity was 7640 a.u.
With `CTACATGATTATTGTGACCAGTAACATTTGCTGTTCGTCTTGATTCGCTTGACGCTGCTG` the fluorescence intensity was 534 a.u.
`CCTAACTACTATAATCACGATGGATAGCTTCGTACAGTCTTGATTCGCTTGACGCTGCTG` gave a fluorescence intensity of 559 a.u.
`CTAACTATATTAATCCACGTTTTTCAAACATATTTCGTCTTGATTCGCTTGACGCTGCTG` gave a fluorescence intensity of 626 a.u.
`GAACCTACCTTAAAACACGTTTCGTTTAAGACATAGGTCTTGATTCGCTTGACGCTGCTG` gave a fluorescence intensity of 612 a.u.
With `GAATAACGACCAGATCATGTCAAACCTACGGTTTAGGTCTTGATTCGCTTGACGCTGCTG` the fluorescence intensity was 494 a.u.
`GAACTGAATAAGTATCAGCAGAAATTTTTTAATTAGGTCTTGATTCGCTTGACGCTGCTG` gave a fluorescence intensity of 506 a.u.
The fluorescence intensity of `CTAAACAACTCGTGTCTCACGAGAGCGCCACTTTTCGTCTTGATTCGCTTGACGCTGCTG` is reported as 630 a.u.
The fluorescence intensity of `CTATCTACGGTAAATCACACTAATCATTCTGATTTCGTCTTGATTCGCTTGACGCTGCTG` is reported as 538 a.u.
`GAATACGACATTTGGCTCATCACCAGCTCGCGATAGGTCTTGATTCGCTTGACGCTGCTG` has a fluorescence intensity of 509 a.u.
`GAATCTACCAAGGTGAACGTGTTAACTGTAAAGTAGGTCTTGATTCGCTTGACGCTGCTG` gave a fluorescence intensity of 593 a.u.
With `GAATTACTAGTTTATTATCACGTGCGGTGTAAGTAGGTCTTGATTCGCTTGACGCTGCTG` the fluorescence intensity was 11900 a.u.
For `GAATGTATGTAAACTCTGATGTAGGATCGCACTTAGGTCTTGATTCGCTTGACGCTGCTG`, the fluorescence intensity was 529 a.u.

Block 4
Target: Histone acetyltransferase KAT6A, winged helix 2, GST fusion (KAT6A, Homo sapiens, UniProt Q92794, residues 85-181)
Technique: protein binding microarray
Form: double-stranded DNA, one strand shown
Sample: in vitro
Concentration: not given
Notes: 8-mer, flanks averaged, mean of 2 arrays, mostly near background
Reference: not given
Direction: higher = stronger binding
Residues (chain): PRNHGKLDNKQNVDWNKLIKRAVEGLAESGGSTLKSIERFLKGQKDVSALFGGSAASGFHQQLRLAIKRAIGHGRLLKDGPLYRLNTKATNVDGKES
The E-score of `CATCACGA` is reported as -0.0708.
For `CCAGCCAA`, the E-score was -0.0143.
The E-score of `TCATGAAA` is reported as -0.0394.
With `AATCAACT` the E-score was 0.0997.
The E-score of `CGCTTTTA` is reported as 0.0645.
`CACTAATA` has an E-score of 0.13.
For `CAGATACA`, the E-score was -0.0548.
`CCGCCCCC` gave an E-score of 0.174.
With `CGCGTTGA` the E-score was -0.0459.
The E-score of `CTGCCAAA` is reported as 0.0687.
The E-score of `AACTTTAG` is reported as -0.0864.
For `ATGACTTG`, the E-score was -0.119.
The E-score of `AATGAGCT` is reported as -0.0416.
`TGCAGGAA` gave an E-score of -0.0353.
`TCAAGGGA` gave an E-score of -0.0197.
`TTAAAGAA` has an E-score of 0.0354.
`ACCTGAGC` has an E-score of 0.00942.
For `CCGGGTTC`, the E-score was 0.22.
`AGTTACGC` gave an E-score of -0.12.
With `AGCGTAAT` the E-score was -0.099.
`CCGTAGTC` gave an E-score of -0.251.
The E-score of `GGACAACC` is reported as -0.0419.
`AACGCGCC` has an E-score of 0.135.
The E-score of `ACAGGTTC` is reported as -0.0976.
`AATAATCG` has an E-score of -0.0163.

Block 5
Target: CCNB3, cyclin fold, Cln2 fusion (human)
Technique: yeast growth competition, sequencing
Sample: yeast
Notes: weak parent motif
Reference: not given
Direction: higher = stronger binding
Starting sequence: RB1 docking peptide (human); PKPLKKLRFDIEG; partner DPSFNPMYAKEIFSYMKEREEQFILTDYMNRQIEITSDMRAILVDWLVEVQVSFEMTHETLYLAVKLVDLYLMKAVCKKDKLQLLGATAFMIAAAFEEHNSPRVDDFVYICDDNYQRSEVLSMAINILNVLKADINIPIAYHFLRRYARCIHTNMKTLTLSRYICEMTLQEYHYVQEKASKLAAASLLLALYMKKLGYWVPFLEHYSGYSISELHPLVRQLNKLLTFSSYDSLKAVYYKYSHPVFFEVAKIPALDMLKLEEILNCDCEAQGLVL
For `E12L`, “normalised enrichment score” read 0.306.
Under “normalised enrichment score”, `L7R` is recorded as 0.461.
Under “normalised enrichment score”, `K6H` is recorded as 0.103.
`P3S`: “normalised enrichment score” 0.613.
For `L4E`, “normalised enrichment score” read 0.05.
`I11V` — result for “normalised enrichment score”: -0.058.
`P3W`: “normalised enrichment score” 0.64.
`I11W` — result for “normalised enrichment score”: 0.0192.
Under “normalised enrichment score”, `D10M` is recorded as 0.534.
`E12N`: “normalised enrichment score” 0.0878.
For `E12M`, “normalised enrichment score” read -0.0548.
`P3T`: “normalised enrichment score” -0.123.
For `K2A`, “normalised enrichment score” read 0.0641.
For `K5T`, “normalised enrichment score” read 0.0886.
`L7M` — result for “normalised enrichment score”: -0.229.
`L7S`: “normalised enrichment score” 0.555.
`P1F` — result for “normalised enrichment score”: 0.812.

Some of these lines once more (block 5):
For `E12M`, “normalised enrichment score” read -0.0548.
For `K5T`, “normalised enrichment score” read 0.0886.
For `K2A`, “normalised enrichment score” read 0.0641.
`P3S`: “normalised enrichment score” 0.613.
Under “normalised enrichment score”, `D10M` is recorded as 0.534.
`I11V` — result for “normalised enrichment score”: -0.058.
`I11W` — result for “normalised enrichment score”: 0.0192.
`P1F` — result for “normalised enrichment score”: 0.812.
Under “normalised enrichment score”, `L7R` is recorded as 0.461.
`P3T`: “normalised enrichment score” -0.123.
`L7S`: “normalised enrichment score” 0.555.
